Measured values of several laboratories.
Every numbered part comes from another study and shows a few of its results, in no order.
Chain of UniProt P08631 (whole entry, looked up): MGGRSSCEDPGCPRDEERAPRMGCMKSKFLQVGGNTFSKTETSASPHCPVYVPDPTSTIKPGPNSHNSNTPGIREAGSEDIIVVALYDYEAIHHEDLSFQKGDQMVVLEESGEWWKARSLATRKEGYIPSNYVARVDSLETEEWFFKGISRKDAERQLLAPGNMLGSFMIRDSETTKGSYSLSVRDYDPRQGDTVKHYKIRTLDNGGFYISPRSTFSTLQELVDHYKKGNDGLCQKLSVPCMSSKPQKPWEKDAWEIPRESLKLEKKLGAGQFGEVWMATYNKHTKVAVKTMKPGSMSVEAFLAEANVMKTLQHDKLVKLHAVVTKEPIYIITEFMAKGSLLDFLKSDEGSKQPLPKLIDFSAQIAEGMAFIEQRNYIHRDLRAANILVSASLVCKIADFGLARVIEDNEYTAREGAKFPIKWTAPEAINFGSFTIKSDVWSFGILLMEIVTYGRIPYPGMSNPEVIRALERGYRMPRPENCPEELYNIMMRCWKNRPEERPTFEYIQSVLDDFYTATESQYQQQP
Chain of UniProt P43403 (whole entry, looked up): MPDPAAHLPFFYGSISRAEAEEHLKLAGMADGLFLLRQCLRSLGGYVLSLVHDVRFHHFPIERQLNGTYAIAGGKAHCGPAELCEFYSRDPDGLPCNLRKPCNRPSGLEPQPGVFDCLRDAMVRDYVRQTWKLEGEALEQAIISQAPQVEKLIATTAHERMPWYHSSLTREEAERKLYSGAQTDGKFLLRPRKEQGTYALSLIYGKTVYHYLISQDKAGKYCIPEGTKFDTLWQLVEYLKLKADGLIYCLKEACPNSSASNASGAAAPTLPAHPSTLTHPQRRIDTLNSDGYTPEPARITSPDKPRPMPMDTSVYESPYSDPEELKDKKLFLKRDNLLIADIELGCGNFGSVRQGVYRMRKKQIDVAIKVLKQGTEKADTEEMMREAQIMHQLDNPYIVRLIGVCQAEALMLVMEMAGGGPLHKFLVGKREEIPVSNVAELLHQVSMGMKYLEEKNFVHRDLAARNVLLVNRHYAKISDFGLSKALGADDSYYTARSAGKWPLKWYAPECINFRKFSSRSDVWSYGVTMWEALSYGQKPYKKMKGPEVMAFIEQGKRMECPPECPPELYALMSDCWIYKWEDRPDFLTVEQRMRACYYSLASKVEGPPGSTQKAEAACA
Chain of UniProt P31152 (whole entry, looked up): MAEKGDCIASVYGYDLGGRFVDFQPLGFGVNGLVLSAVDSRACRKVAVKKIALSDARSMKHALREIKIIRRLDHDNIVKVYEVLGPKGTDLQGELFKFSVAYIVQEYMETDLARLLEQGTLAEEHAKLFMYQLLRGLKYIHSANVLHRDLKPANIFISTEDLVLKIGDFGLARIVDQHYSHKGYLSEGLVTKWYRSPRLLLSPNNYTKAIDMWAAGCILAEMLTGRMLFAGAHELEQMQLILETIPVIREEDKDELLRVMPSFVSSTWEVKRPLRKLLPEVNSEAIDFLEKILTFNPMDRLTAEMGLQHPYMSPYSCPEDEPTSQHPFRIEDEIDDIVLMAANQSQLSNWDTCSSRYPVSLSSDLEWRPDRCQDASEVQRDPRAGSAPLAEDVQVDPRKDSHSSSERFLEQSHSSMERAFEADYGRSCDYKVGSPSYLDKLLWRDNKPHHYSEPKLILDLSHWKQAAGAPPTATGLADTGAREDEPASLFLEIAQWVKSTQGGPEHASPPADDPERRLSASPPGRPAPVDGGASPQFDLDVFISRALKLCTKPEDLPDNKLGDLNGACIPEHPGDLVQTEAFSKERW
Chain of UniProt Q9HBH9 (whole entry, looked up): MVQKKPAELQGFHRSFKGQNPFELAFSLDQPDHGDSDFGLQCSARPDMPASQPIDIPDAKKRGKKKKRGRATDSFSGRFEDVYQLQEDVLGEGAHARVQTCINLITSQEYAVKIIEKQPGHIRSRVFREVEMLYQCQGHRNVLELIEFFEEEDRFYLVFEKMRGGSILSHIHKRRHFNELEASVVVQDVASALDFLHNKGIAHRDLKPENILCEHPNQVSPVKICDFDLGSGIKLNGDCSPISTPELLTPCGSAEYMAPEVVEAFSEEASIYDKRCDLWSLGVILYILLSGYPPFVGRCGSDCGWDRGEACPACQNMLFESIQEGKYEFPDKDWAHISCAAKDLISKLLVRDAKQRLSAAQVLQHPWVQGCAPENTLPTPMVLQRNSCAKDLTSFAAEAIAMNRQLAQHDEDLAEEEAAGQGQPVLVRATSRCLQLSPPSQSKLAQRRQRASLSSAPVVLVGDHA

Series 1
Target: Runt-related transcription factor 1, full length (RUNX1, Homo sapiens, UniProt Q01196-8, residues 1-480)
Method: protein-binding microarray
Form: hairpin DNA
Sample: in vitro
Concentration: not given
Setting: whole hairpin DNA, median over replicate spots
Relative to: not given
Reading: higher = stronger binding
Strand	median fluorescence
GAGGCCTGTCGCGGTTGGCCTCCTGGCCAACCGCGACAGGCCTCACACTC (5mC at 10 12 34)	3270 a.u.
GAGGCCTGTCGCGGTTGGCCTCCTGGCCAACCGCGACAGGCCTCACACTC (5mC at 31)	1700 a.u.
GAGGCCAAACCGCAACAGCCTCCTGGCTGTTGCGGTTTGGCCTCACACTC	9080 a.u.
GAGGCCTCGTGTGGTTGGCCTCCTGGCCAACCACACGAGGCCTCACACTC	2230 a.u.
CTCAGTTCTGTGCGCTGGACTCCTGTCCAGCGCACAGAACTGAGACACTC (5mC at 31)	1700 a.u.
GAGGCCTGTTCCGGTTGGCCTCCTGGCCAACCGGAACAGGCCTCACACTC (5mC at 11)	1730 a.u.
GAGGCCCAACCCCAACAGCCTCCTGGCTGTTGGGGTTGGGCCTCACACTC (5mC at 12)	2110 a.u.
CTCAGTTCTGTGGCGTGGACTCCTGTCCACGCCACAGAACTGAGACACTC	1970 a.u.

Series 2
SMILES: COc1ccc2c(c1)O[C@@H](c1ccc(OC)c(OC)c1)C[C@H]2NC(=O)C1(c2ccc3c(c2)OC(F)(F)O3)CC1
Effect on: cell-free assay
Method: competition with immobilised ligand
Concentration: 1 µM
target	remaining binding
Mitogen-activated protein kinase 4 (MAPK4, Homo sapiens, UniProt P31152)	99%
Tyrosine-protein kinase ZAP-70 (ZAP70, Homo sapiens, UniProt P43403)	71%
Tyrosine-protein kinase HCK (HCK, Homo sapiens, UniProt P08631)	88%
MAP kinase-interacting serine/threonine-protein kinase 2 (MKNK2, Homo sapiens, UniProt Q9HBH9)	93%

Series 3
Target: RING finger protein unkempt homolog, zinc fingers 1-6, GST-SBP tag (UNK, Homo sapiens, UniProt Q9C0B0, residues 30-357)
Chain of UniProt Q9C0B0 (30-357, looked up): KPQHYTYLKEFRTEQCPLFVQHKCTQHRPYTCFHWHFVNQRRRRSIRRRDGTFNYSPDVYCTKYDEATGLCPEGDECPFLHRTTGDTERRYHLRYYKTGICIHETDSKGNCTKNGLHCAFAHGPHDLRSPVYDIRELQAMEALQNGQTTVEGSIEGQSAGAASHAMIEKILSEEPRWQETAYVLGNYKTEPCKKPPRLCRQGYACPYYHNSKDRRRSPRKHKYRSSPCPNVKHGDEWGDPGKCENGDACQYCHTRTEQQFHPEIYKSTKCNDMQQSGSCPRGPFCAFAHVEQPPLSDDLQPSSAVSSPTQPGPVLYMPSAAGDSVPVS
Method: RNA Bind-n-Seq
Form: RNA
Sample: in vitro
Concentration: not given
Setting: RNA with constant flanks, human and mouse sites, ends assumed
Relative to: input RNA pool
Reading: higher = stronger binding
Shared flanks, not repeated: GGGAGUUCUACAGUCCGACGAUC … CAACAGAGGAUUGAGCAUCA
Strand	bound/input enrichment
AGAAAAUAAAUGAUUUUUAAGUUAUGUCUAUUAAUUUGACUCUAGAUAUAUAUAUUUACUUCCUUAAUAAUGCAAGAAGUCUUUGUGGGAAACAGAGAAGCAAACAAUUGCAUUUUGUGU	3.2 ratio
AAGGGUACAUCUGUGUGAAGGCUGGACGAAACCCCAACUACGGUUACACGAGCUUUGACACAUUUAGCUGGGCCUUCUUAUCGCUGUUUCGACUCAUGACUCAAGACUACUGGGAGAACC	0.353 ratio
AAUGGAUUCAUAAAUGAAGACUUUAUAGUUUGGAUGCGUACUGCAGCAUUACCUACUUUUCGUAAGUUGUAUCGUCUCAUAGAGCGGAGAGAUGAUUUACACCCAACAUUACCAGCUGGA	0.307 ratio
CAGCCUCUGGGGCGCAUUCCAACCUUCCAGCCUGCGACCUGCGGAGAAAAAAAAUUACUUAUUUUCUUGCCCCAUACAUACCUUGAGGCGAGCAAAAAAAUUAAAUUUUAACCAUGAGGG	0.247 ratio
CUAUGUAAGUUUCAUUUAGAAAGACAUGCAUUUAUAUUUUGUUUCUGUAAUAUUCUACUGUAGGUGAAAUCUUUUCAAAAAUCAAGAGACUGGGUAGAUAAGAAUAUAUGAAUGACUAAU	1.35 ratio
GUCCACAAAAUAUAUUAAAACUGAAAUUUUUGUUCUUUUAGCUUUCGAAUUUACACUUUUGAGAGCAGUGUGAUUCUUUCAAGUCUAGCAGUGCAUUAAGAGGGCCUGAGCGUUUCCGUU	0.762 ratio
CAAUUAUCUCAUGAUGUACGUCAGGCCUUUCCAGUUAUUCCAAACAAUACAAAGUGACAAUAUAGUUGGCUUCUAACUAUAGUACAAAUUUGAUUACAGUUAAUAUACUUAAGAUAUUAC	0.57 ratio
ACACCAGUUGGGGGACAGAGAACUGCUUCUAGGAAGAACACCAGAUGAAGAGGAUGAAGCCAUCUGGAGAGUAAAUGGCCACCACCACUCCCCCAGAGACAAAGUCAGCAGCGUGGUGGA	1.31 ratio

Series 4
Target: Serine/threonine-protein kinase pim-1 (PIM1, Homo sapiens, UniProt P11309)
Chain of UniProt P11309 (whole entry, looked up): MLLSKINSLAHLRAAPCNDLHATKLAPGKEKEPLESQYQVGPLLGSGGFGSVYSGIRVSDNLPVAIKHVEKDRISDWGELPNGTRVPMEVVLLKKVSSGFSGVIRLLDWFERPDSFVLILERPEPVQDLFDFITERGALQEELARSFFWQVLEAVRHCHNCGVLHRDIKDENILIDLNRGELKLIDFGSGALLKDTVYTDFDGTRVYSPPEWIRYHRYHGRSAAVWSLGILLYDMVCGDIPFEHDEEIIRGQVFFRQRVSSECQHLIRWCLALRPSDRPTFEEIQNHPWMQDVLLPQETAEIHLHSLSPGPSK
Effect on: enzyme activity
Action: inhibitor
Concentration: 0.5 µM
Relative to: control
Compound	remaining activity [%]
O=C1c2ccccc2-c2nc3nnnn3nc21	94.1
CNc1cc2c(Nc3cccc(Br)c3)ncnc2cn1	66.2
CC(C)(C)c1nc2c3cc[nH]c(=O)c3c3cc(F)ccc3c2[nH]1	38.6
N#C/C(=C(/N)SC1C=CC=CC1)c1cccc(C(O)c2ccncc2)c1 (stereo not drawn)	96.7
O=C(c1ccccc1)c1ccc(N2CCOCC2)cc1O	101
CCCCc1c(-c2ccc(O)cc2)[nH]c2nccnc12	83.8
C[C@@H](N)[C@H]1CC[C@H](C(=O)Nc2ccncc2)CC1	96.9

Some of these lines once more (series 1):
Strand	median fluorescence
GAGGCCTGTCGCGGTTGGCCTCCTGGCCAACCGCGACAGGCCTCACACTC (5mC at 10 12 34)	3270 a.u.
GAGGCCCAACCCCAACAGCCTCCTGGCTGTTGGGGTTGGGCCTCACACTC (5mC at 12)	2110 a.u.
CTCAGTTCTGTGCGCTGGACTCCTGTCCAGCGCACAGAACTGAGACACTC (5mC at 31)	1700 a.u.
GAGGCCTGTCGCGGTTGGCCTCCTGGCCAACCGCGACAGGCCTCACACTC (5mC at 31)	1700 a.u.
